Results gathered from unrelated publications.
Parts stem from different laboratories: compare values within a part only. Positions count from the first letter of the parent shown.

Series 1 — target: ATF7, bZIP domain (human); technique: DHFR protein complementation; medium: yeast; relative to: wild-type JUN-FOS pair; direction: higher = stronger binding
Notes: single substitutions, most at no-binding floor
Starting sequence: JUN, bZIP domain (human); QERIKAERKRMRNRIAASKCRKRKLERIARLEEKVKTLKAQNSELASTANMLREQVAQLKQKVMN; partner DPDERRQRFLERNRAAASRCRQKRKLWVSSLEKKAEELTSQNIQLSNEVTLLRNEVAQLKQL
Change | binding fitness [natural log]
S43K | -0.772
Q41H | -1.13
S47K | -0.597
I28W | -0.853
T37V | -0.864
A40S | -1.02
E33P | -1.38
A49P | -1.47
A46S | -0.964
A57M | -1.04
M51W | -1.1
V35F | -1.4
S47L | -0.93
N42R | -1.26
M51T | -0.857
S43E | -0.634
Q41V | -1.03

Series 2 — technique: protein binding microarray; form: double-stranded DNA, one strand shown; medium: in vitro; tested at: not given; relative to: not given; direction: higher = stronger binding
Target: Histone acetyltransferase KAT6A, winged helix 2, GST fusion (KAT6A, Homo sapiens, UniProt Q92794, residues 85-181)
Notes: 8-mer, flanks averaged, mean of 2 arrays, mostly near background
Construct (chain): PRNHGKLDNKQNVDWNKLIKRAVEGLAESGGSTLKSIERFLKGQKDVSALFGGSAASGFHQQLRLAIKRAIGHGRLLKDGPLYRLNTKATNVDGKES
Oligonucleotide | E-score
CTCGGGCC | 0.068
CCTATACC | -0.15
CAGAGAAC | -0.0114
TGCGTACA | -0.0689
AAGGCAAG | -0.0833
GAGCACCC | 0.0739
ATATATAG | -0.07
AGCACCAT | -0.179
AGTAGTAT | -0.0972
AGTTTTGG | 0.0434
CGTGGACA | -0.055
CATCGCCA | 0.00439
ATACATAT | 0.0863
CAGCTGAG | -0.000455
ACGGCTAT | -0.168
AACGATCT | -0.0542
GTGACAAC | -0.0226
ATGACTGG | -0.255
ACCCTATC | -0.195
ATCCCCCA | -0.242
AGGGATTC | -0.0694
AAGCTTAT | 0.0139
AGACTCGG | -0.204
ACTATTTC | -0.115

Series 3 — technique: RNA Bind-n-Seq; form: RNA; medium: in vitro; tested at: 365 nM; relative to: no-protein control; direction: higher = stronger binding
Target: RNA binding protein fox-1 homolog 2, RRM domain, GST-SBP tag (RBFOX2, Homo sapiens, UniProt O43251-10, residues 100-194)
Notes: natural RNA segment, single round, ends assumed
Shared flanks, not repeated: GGGAGUUCUACAGUCCGACGAUC … UGGAAUUCUCGGGUGCCAA
Target sequence (chain): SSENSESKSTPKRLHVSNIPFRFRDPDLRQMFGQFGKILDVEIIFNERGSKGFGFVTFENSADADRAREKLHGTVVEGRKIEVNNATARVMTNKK
Oligonucleotide | RBNS enrichment (R)
CUUGAUCCUUUGACCAAGAAGAUCCAGUCCCAAUAUGUCACCUGUGCUUCAUCUUUGGACUAUAUCUCAGGUGUUUACGUGUCAACUAAUGGGAGCUUACUGGGUUAGAA | 0.279
UACAGGCGUACAACAAAAAGCGGGUAGAAAUAAGAAUGUCACACUCCCGGGGCAUGGUAAGCCUGAGUUUGCCCUAACACCUCACUUAUCAGCUCUAUUACGACCCUUCU | 0.279
CUUGCUUCCUAGUGCACUCGUUCAAUUGGAUUGGGGAGGAGACUGACUGUACUCACGGCUAACUUGAAGUAUUAAAAUGAGGCUGUACUCUACACACUUCCUAGUCACGC | 0.308
CAUCUGAUAAGGGAAUCCCGUCUGCCCUGGGGCUGGAGAGAUGGGAGGGAGGUCUUAGGAUGUUGUAUGCUGUGCUGAGUGGGUGCCAGUUUGGCGUGAUGUCACGUGUG | 1.55
CUGGGGAAGCAGAUGACUCUUCCACUGGGGCGGAAGGGGCACCCACUGUGUCCCGAAGGGGCAGUCAAAGUGCAAUAUUAUUGAAACUUCCCUCCCUACACACCCAGUGC | 0.516
UUGAUCUAAUUCUGUUUCUGGGGAGCAUCUUGUACUGUCACUGUUUUUGUACUAAAUCUUCAAAUAUUGUCUACUGUGUCAGGCAGAAACCGUUCUUAUCACGAGAAAGC | 0.54
GGAAGUGUAUAUACUUUUGGCAAGUCAUACAGCUCAAAUGUGAUGAGAUUUCUGAUGUUAGAGGGAGAUGGAGAGGCUUCCUGAUGCCUCAUCUGCAGGGUCCUGUGCCU | 0.333
UUCUGUCUCUAUGAGAGAUAGCUUAUUACUCUGAUACUCUUUAAUCUUUUACAAAGGCAAGUUGCCACUUGUCAUUUUUGUUUCUGAAAAAUAAAAGUAUAACUUAUUCA | 0.387

Series 4 — technique: protein-binding microarray; form: double-stranded DNA, one strand shown; medium: in vitro; tested at: 940 nM top; notes: 60-bp whole probe; added: salmon DNA 0.4 mg/ml; relative to: random background probes; direction: higher = stronger binding; shared flanks, not repeated: GCCTAGCAC … GTCTTGATTCGCTTGACGCTGCTG
Target: Interferon regulatory factor 5, full length, phosphomimetic (IRF5, Homo sapiens, UniProt Q13568-2, residues 1-514, S451D/S453D/S456D/S462D)
Oligonucleotide | fitted relative affinity
TTAGAACTGGGGACTGAATTAGTGCTA | 0.0729 z-score
TTAGGTTCCGGACTGGGTTAGTGCTAG | 0.292 z-score
TTAGAACTGGAGACTGGATTAGTGCTA | -0.516 z-score
TTAGGTCTCGGTCGCGGTTAGTGCTAG | 5.04 z-score
TTAGGTATCGGAACTGGGTTAGTGCTA | 4.63 z-score
GCCGGTTTCGGTTTCGGGACGTGCTAG | 15.4 z-score
GACGGTTTCGTTCTCCTGACGTGCTAG | 9.12 z-score
TTAGATTTCAGTATCGATCAGTGCTAG | 5.68 z-score
TTACAATTTGCTTTAGTCATGTGCTAG | 0.299 z-score
TCAGTTTTCCTTATTGCACTGTGCTAG | 1.72 z-score
GAGGGTATCCTACTGCTGACGTGCTAG | -0.443 z-score
TTAGATTTCGGGACTGGATAAGTGCTA | 0.856 z-score
TTGGAACTGAGTTTCGATTAGTGCTAG | 7.5 z-score

Series 5 — target: CCND2, cyclin fold, Cln2 fusion (human); technique: yeast growth competition, sequencing; medium: yeast; notes: weak parent motif; relative to: not given; direction: higher = stronger binding
Starting sequence: E2F1 docking peptide (human); PPVKRRLDLETDH; partner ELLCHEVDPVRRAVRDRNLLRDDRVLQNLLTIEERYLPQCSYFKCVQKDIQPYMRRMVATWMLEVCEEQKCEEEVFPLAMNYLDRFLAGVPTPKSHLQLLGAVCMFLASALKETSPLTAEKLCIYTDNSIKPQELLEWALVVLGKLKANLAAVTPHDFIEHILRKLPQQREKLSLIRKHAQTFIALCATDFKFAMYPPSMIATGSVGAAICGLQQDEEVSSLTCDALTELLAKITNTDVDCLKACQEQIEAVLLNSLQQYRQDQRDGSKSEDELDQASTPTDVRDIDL
Change | normalised enrichment score
L7F | -0.113
P1R | 0.101
D8S | 0.67
K4C | 0.358
D8A | -0.01
E10D | 0.649
T11N | -0.087
R5H | -0.00479
V3H | 0.0536
K4D | 0.0899
D12N | -0.345
D12L | 0.354
V3A | 0.655
P1L | 0.987
D12K | 0.192
V3S | 0.135
P1N | 0.347
K4M | 0.391
D12Q | 0.303
L7D | 0.196
E10T | 0.221
H13F | 0.546
V3D | -0.169
E10F | 0.151
R5K | 0.309

For quick reference, copied from above (series 1):
Change | binding fitness [natural log]
S47K | -0.597
I28W | -0.853
T37V | -0.864
A40S | -1.02
E33P | -1.38
A49P | -1.47
A46S | -0.964
A57M | -1.04
M51W | -1.1
V35F | -1.4
S47L | -0.93
